Experimental data gathered from unrelated publications.
Lines come from different studies, so protocols differ. Numbers after ± are the reported error.
GABA-A receptor; alpha-1/beta-3/gamma-2: GABA-A receptor; alpha-1/beta-3/gamma-2 (Homo sapiens, UniProt P14867+P18507+P28472)
Sequence of UniProt P18507 (whole entry, looked up): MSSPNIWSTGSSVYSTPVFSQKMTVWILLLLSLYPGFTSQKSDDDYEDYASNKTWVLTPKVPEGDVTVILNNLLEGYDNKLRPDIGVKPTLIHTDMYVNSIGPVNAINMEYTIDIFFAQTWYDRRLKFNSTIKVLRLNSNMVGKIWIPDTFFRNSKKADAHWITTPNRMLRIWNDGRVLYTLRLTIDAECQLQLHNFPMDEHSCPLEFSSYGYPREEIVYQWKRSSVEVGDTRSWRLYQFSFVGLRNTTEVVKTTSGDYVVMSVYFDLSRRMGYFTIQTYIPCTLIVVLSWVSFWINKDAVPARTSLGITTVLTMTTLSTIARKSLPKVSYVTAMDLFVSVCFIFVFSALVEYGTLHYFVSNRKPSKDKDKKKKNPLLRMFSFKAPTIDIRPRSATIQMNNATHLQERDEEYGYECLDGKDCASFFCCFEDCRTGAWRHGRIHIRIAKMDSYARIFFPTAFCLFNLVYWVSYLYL
Sequence of UniProt P28472 (whole entry, looked up): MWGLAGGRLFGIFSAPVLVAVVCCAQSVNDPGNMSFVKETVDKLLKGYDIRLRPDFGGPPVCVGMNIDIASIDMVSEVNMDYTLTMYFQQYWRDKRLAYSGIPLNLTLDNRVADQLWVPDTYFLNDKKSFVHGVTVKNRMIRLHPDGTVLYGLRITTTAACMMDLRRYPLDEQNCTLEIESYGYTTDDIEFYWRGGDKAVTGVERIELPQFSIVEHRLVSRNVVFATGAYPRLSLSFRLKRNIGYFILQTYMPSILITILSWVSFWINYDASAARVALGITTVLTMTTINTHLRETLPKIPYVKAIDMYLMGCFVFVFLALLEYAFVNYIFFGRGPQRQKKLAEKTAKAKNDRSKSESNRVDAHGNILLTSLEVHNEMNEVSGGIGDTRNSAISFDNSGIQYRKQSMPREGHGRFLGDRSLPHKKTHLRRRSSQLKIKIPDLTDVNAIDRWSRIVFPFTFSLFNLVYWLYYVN
Sequence of UniProt P14867 (whole entry, looked up): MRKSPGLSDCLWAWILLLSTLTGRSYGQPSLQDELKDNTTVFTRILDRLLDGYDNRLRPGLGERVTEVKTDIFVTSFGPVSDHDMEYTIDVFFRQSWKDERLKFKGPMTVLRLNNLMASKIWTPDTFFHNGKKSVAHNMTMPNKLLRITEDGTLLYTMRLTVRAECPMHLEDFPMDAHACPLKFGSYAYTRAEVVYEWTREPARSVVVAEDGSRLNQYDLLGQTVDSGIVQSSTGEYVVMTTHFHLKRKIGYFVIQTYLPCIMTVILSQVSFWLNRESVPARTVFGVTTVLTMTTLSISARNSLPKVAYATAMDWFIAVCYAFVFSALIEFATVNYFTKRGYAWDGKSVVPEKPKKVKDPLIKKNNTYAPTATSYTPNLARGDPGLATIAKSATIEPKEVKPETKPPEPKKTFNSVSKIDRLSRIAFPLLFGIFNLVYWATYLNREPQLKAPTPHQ
Kir3.1/Kir3.2: Kir3.1/Kir3.2 (Homo sapiens, UniProt P48051+P48549)
Sequence of UniProt P48051 (whole entry, looked up): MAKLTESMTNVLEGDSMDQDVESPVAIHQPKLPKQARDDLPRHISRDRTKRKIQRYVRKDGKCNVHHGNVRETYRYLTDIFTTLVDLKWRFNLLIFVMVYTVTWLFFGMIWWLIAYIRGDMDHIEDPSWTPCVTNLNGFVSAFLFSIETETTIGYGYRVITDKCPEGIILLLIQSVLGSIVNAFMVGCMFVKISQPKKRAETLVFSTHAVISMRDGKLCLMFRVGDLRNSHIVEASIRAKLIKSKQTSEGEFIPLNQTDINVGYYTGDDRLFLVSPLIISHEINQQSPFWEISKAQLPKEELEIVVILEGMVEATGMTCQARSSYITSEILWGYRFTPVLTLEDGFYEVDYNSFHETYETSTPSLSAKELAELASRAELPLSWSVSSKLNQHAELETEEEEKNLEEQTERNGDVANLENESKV
Sequence of UniProt P48549 (whole entry, looked up): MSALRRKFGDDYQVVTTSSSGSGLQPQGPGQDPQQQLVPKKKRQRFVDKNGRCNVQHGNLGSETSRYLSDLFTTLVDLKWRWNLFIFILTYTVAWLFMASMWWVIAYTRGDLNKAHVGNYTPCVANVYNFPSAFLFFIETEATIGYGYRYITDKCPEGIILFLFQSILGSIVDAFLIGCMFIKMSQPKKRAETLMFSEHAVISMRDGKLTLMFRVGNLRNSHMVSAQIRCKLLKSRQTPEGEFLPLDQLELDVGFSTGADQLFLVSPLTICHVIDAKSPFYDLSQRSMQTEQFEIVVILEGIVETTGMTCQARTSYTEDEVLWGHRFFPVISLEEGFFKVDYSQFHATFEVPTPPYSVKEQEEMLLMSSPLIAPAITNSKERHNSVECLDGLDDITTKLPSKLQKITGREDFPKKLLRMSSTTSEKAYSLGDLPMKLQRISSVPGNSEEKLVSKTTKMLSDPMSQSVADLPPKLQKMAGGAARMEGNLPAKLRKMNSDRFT
Sequence of UniProt Q13258 (whole entry, looked up): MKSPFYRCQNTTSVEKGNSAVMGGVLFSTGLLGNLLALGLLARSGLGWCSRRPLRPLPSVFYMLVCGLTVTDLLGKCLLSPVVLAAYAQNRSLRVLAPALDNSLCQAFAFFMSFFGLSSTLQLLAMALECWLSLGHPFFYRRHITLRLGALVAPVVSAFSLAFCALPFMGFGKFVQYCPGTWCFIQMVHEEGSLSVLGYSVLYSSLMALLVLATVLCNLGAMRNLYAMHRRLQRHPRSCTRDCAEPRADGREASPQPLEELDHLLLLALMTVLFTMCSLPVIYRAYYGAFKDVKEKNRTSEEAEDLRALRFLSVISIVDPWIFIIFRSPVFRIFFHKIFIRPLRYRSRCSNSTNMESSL
Sequence of UniProt P35414 (whole entry, looked up): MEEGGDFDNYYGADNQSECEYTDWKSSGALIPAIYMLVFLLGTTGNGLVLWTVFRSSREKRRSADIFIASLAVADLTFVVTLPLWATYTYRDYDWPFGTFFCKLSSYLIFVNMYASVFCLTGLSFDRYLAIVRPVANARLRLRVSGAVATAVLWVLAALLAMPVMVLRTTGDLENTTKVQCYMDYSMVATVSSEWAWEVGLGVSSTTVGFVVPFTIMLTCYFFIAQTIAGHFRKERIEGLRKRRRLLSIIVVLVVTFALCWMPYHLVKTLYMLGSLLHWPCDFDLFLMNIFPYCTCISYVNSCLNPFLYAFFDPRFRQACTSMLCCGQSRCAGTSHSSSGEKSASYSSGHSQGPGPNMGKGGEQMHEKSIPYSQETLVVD
Sequence of UniProt P34995 (whole entry, unmodified, looked up): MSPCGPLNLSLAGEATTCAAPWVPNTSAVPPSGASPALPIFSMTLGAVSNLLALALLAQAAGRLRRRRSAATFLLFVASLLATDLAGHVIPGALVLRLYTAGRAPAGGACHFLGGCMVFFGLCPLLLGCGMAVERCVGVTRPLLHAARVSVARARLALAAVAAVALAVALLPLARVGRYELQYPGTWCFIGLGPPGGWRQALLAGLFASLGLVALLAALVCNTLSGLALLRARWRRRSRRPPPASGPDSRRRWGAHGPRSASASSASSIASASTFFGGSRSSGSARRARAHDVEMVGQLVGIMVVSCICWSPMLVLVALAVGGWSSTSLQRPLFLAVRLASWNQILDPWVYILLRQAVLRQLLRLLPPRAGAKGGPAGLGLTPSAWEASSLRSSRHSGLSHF

SMILES | target | test | system | conditions | how to read | Emax
CCOCc1nc(O)c(-c2nnc(Cc3ccc(Cl)cn3)o2)c(O)c1-c1c(OC)cccc1OC | Apelin receptor (APLNR, Homo sapiens, UniProt P35414) | Gαi1 activation, agonist, BRET biosensor | HEK293 |  |  | 93 ± 6%
N=C1NC(=O)C2(CCc3ccc(F)cc32)C(=O)N1 (stereo not shown) | GABA-A receptor; alpha-1/beta-3/gamma-2 |  |  | 300 µM |  | -2%
O=C(COc1cccc(Cl)c1Cl)Nc1cc(C2CC2)nn1C1CCC(F)(F)CC1 | Kir3.1/Kir3.2 | thallium flux, activator | HEK293 |  | baseline: standard compound | 52%
CCCCC[C@H](O)/C=C/[C@H]1C(=O)C[C@H](O)[C@@H]1C/C=C\CCCC(=O)O | PTGDR (Homo sapiens, UniProt Q13258) | agonist |  |  |  | 116 ± 7%
CCCCC[C@H](O)/C=C/[C@H]1[C@H](O)CC(=O)[C@@H]1C/C=C\CCCC(=O)O | PTGER1 (Homo sapiens, UniProt P34995, R63A) | IP1 accumulation, agonist | AD293 | 1 h, EP1 R63A mutant |  | 76.1 ± 5.09%
c1ccc([C@H]2CN3CCSC3=N2)cc1 | acetylcholine-gated chloride channel (Haemonchus contortus, UniProt A0A219KWM7) | ion current, agonist, two-electrode voltage clamp | Haemonchus contortus, Xenopus oocytes | added: acetylcholine 500 µM | baseline: acetylcholine response | 37%
CN=C1NC(=O)C2(CCc3ccccc32)C(=O)N1 (stereo not shown) | GABA-A receptor; alpha-1/beta-3/gamma-2 |  |  | 300 µM |  | -9%
O=C(COc1ccc(Cl)cc1Cl)Nc1cc(C2CCC2)nn1C1CCC(F)(F)CC1 | Kir3.1/Kir3.2 | thallium flux, activator | HEK293 |  | baseline: standard compound | 30%
Cc1ccc2c(c1)C1(CC2)C(=O)NC(=N)NC1=O (stereo not shown) | GABA-A receptor; alpha-1/beta-3/gamma-2 |  |  | 300 µM |  | -9%
O=C(COc1ccc(Cl)cc1Cl)Nc1cc(C2CC2)nn1C1CCC(F)(F)CC1 | Kir3.1/Kir3.2 | thallium flux, activator | HEK293 |  | baseline: standard compound | 56%
